Published values of several laboratories.
Compare with care: the assays were run in different laboratories. Several values in a cell are separate wells, animals, samples, runs or records. ± gives the spread as reported.
PARP1: Poly [ADP-ribose] polymerase 1 (PARP1, Homo sapiens, UniProt P09874)
Chain of UniProt P09874 (whole entry, looked up): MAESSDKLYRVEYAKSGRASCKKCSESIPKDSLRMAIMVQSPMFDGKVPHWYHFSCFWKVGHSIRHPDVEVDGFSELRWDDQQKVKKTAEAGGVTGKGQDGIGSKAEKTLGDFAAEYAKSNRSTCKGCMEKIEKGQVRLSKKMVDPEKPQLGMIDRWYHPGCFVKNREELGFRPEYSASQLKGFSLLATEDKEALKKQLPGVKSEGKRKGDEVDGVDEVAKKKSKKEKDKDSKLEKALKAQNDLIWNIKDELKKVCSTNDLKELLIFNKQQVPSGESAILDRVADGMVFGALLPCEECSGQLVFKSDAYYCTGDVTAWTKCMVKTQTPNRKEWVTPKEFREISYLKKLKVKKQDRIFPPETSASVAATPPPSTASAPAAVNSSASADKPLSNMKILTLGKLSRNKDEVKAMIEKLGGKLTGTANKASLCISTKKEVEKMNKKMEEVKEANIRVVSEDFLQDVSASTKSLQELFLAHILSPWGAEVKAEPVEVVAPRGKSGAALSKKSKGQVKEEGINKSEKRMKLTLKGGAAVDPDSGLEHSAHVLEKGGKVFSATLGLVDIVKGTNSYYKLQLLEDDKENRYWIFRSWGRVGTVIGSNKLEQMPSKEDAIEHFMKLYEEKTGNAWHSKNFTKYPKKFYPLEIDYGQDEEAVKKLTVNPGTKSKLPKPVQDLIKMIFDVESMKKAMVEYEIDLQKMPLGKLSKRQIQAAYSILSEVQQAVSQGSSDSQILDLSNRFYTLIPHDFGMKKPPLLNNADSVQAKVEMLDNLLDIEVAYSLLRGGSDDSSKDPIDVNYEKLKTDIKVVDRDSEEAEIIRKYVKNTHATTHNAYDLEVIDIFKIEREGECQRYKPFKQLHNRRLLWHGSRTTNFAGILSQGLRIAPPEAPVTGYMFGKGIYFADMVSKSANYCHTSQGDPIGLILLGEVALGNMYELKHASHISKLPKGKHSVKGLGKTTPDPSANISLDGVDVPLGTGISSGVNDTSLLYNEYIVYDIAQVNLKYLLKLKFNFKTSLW
Chain of UniProt P61073 (whole entry, looked up): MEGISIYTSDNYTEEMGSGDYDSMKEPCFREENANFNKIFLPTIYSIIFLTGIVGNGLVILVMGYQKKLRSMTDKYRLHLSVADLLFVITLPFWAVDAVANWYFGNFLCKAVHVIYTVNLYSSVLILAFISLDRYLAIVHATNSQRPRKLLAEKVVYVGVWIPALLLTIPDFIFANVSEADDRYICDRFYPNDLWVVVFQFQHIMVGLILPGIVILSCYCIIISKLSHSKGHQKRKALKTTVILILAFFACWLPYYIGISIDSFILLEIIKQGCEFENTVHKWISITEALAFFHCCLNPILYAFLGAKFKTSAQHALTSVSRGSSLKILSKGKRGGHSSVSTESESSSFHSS
Chain of UniProt Q99808 (whole entry, looked up): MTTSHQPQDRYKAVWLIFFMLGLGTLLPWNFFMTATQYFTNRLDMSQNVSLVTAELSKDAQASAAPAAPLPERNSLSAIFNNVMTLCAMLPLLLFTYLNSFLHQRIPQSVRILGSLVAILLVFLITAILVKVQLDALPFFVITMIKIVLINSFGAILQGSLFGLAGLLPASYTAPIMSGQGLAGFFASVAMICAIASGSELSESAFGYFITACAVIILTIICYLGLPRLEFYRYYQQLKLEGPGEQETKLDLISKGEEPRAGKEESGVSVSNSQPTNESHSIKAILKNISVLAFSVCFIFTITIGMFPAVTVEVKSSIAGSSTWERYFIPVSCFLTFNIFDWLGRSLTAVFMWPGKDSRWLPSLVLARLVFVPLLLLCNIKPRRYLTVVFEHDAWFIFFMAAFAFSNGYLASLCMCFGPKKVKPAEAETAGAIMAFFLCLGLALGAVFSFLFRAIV
Chain of UniProt P62068 (whole entry, looked up): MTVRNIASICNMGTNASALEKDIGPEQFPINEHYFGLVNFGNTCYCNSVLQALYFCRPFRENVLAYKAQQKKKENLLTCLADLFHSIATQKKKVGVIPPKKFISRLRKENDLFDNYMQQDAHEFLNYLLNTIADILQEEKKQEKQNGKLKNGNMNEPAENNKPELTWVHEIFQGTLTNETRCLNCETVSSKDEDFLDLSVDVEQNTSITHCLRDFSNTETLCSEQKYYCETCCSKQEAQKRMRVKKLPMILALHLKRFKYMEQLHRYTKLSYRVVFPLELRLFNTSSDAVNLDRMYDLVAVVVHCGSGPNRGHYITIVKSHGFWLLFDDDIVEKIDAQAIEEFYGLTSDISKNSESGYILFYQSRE
Chain of UniProt Q6IQ20 (whole entry, looked up): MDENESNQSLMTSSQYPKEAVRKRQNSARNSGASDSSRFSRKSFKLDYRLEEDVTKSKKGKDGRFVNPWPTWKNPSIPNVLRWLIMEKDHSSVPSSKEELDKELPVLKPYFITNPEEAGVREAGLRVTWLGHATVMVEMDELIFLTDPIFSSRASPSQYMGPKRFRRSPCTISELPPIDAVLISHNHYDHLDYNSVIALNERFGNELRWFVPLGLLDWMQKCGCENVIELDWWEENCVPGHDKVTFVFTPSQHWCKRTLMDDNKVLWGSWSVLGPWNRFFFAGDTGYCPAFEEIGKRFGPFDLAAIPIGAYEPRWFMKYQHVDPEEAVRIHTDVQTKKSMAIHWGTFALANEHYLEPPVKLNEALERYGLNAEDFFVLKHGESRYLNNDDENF
Chain of UniProt O00311 (whole entry, looked up): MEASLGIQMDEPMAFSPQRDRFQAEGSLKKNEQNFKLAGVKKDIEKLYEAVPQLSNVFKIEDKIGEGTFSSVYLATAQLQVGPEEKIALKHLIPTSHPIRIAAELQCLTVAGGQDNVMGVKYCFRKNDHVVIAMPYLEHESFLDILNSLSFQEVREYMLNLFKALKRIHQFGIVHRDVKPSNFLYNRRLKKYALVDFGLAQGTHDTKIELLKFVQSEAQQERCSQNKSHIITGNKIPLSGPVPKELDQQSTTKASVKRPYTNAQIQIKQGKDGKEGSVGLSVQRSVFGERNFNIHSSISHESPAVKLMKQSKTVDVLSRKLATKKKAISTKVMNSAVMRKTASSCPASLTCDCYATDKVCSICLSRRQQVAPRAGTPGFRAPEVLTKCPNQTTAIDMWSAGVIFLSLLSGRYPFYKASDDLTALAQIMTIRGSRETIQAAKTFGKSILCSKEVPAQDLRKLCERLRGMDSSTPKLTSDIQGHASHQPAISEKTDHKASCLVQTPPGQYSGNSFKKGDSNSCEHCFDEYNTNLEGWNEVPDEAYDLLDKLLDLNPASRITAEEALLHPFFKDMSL
Chain of UniProt Q8NFJ6 (whole entry, looked up): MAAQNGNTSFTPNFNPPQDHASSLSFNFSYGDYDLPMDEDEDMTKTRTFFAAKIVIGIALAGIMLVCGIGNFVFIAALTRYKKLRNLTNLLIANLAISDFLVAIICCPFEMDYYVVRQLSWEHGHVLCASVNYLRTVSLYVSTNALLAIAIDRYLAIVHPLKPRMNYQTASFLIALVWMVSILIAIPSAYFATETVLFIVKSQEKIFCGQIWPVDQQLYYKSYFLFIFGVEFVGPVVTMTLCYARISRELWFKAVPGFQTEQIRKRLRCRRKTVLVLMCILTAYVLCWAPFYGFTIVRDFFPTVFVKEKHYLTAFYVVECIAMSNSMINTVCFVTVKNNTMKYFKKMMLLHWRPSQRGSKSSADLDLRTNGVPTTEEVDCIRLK

O=C(O[C@@H]1Cc2c(O)cc(O)cc2O[C@@H]1c1ccc(O)c(O)c1)c1cc(O)c(O)c(O)c1  IC50 (Cell division cycle 7-related protein kinase, with DBF4 (CDC7, Homo sapiens, UniProt O00311); enzyme activity, inhibitor, ADP-Glo luminescence; with: ATP 12.5 µM): 33700 ± 7550 nM
COc1ccc(Cn2c(NCCNC(=N)NC(=O)c3ccc(F)cc3)nc(=O)n(Cc3ccc(F)cc3)c2=O)cc1  IC50 (PROKR2 (Homo sapiens, UniProt Q8NFJ6); ligand displacement, radioligand): 1200 nM
[Cl-].[Cl-].[Zn+2]  IC50 (HVCN1 (Homo sapiens, UniProt Q96D96, E119H/H140A); proton current, inhibitor, whole-cell voltage clamp; human cells; pH 6.5, test pulse 120 mV): 600 nM
Cc1ccc(C(=O)Nc2ccc(S(=O)(=O)O)c3cc(S(=O)(=O)O)cc(S(=O)(=O)O)c23)cc1NC(=O)c1cccc(NC(=O)Nc2cccc(C(=O)Nc3cc(C(=O)Nc4ccc(S(=O)(=O)O)c5cc(S(=O)(=O)O)cc(S(=O)(=O)O)c45)ccc3C)c2)c1  IC50 (SIRT3 (Homo sapiens, UniProt Q9NTG7); enzyme activity, inhibitor, HPLC): 5000 to 75000 nM
CN1CCN(C[C@@H]2COc3c(cccc3C(N)=O)O2)CC1  IC50 (PARP1): > 5000 nM
CC(C)C1=CC[C@H]2C(=C1)CC[C@@H]1[C@]2(C)CCC[C@@]1(C)C(=O)O  IC50 (CA9 (Homo sapiens, UniProt Q16790); enzyme activity, inhibitor, stopped-flow; pH 7.4): 148 nM
COc1ccc2nc(NCc3ccc(CNCCCNC4CCCCCC4)cc3)nc(NC3CCNCC3)c2c1  IC50 (CXCR4 (Homo sapiens, UniProt P61073); ligand displacement, radioligand; cell membranes): ~10 nM and 7.9 nM
Nc1nc(Nc2ccc3c(c2)CC[C@@H](N2CCCC2)CC3)nn1-c1cc2c(nn1)-c1ccccc1CCC2  IC50 (DNA topoisomerase 1 (TOP1, Homo sapiens, UniProt P11387); enzyme activity, inhibitor): 75800 nM
O=c1c2ccccc2nc(NN=Cc2ccc([N+](=O)[O-])cc2)n1-c1ccccc1  IC50 (PARP1; enzyme activity, inhibitor, absorbance): 484 nM
NC(=O)c1cccc2c1OC[C@@H](CO)O2  IC50 (PARP1): 6900 ± 950 nM
C#Cc1ccc2c(C)cc(=O)oc2c1  IC50 (Cytochrome P450 1A2 (CYP1A2, Homo sapiens, UniProt P05177); enzyme activity, inhibitor; 6 min, pH 7.6): 2200 nM
O=c1[nH]c2ccccc2n1C1CCN(CCCC(c2ccc(F)cc2)c2ccc(F)cc2)CC1  IC50 (USP46, with UAF1 (Homo sapiens, UniProt P62068); deubiquitinase activity, inhibitor; no inhibition up to 114 µM, with: K63-linked diubiquitin): > 114000 nM
COc1ccc(-c2cc(=O)c3c(OC)c([C@@H]4O[C@H](C(=O)NCCCF)[C@@H](O)[C@H](O)[C@H]4O)c(OC)cc3o2)cc1OC  IC50 (GSK3B (Homo sapiens, UniProt P49841); enzyme activity, inhibitor, ADP detection): 49500 nM
CC(=O)n1c(=S)[nH]c2ccccc21  IC50 (mbtI (Mycobacterium tuberculosis, UniProt P9WFX1); enzyme activity, inhibitor, continuous fluorescence; with: chorismate): 9200 ± 900 nM
O=c1[nH]c2ccccc2n1C1CCN(CCCC(c2ccc(F)cc2)c2ccc(F)cc2)CC1  IC50 (ABCC1 (Homo sapiens, UniProt P33527); efflux, inhibitor; SupT1-Vin overexpressing ABCC1; with: SYTO 13 100 nM): 7200 ± 2600 nM
insulin icodec  IC50 (IGF1R (Homo sapiens, UniProt P08069); binding, competitor, scintillation proximity; solubilized receptor; HSA 0%): 1520 nM
O=C(NCC1CC1)c1cc(N2CC[C@H](O)C2)nc(N2CCC[C@@H](c3ccccc3)C2)n1  IC50 (N-acyl-phosphatidylethanolamine-hydrolyzing phospholipase D (Homo sapiens, UniProt Q6IQ20); photoprobe labeling; HEK-293T, NAPE-PLD transfected; 30 min, with: photoprobe 2 µM): 860 nM
Cn1c(=O)c(=O)n(C)c2cc(S(=O)(=O)Nc3ccc(Br)cc3)ccc21  IC50 (DPP4 (Homo sapiens, UniProt P27487); enzyme activity, inhibitor, fluorescence): 0.71 nM
O=C(O)c1cc2cc(-c3ccccc3)ccc2c(I)c1O  IC50 (Glutamate NMDA receptor; Grin1/Grin2a (Grin1/Grin2a, Rattus norvegicus, UniProt P35439+Q00959); ion current, two-electrode voltage clamp; oocytes): 5480 nM
C[C@H]1Oc2cc(cnc2N)-c2c(nn(C)c2C#N)CN(C)C(=O)c2ccc(F)cc21  IC50 (SLC29A1 (Homo sapiens, UniProt Q99808); transporter uptake, inhibitor, radiometric): 2500 nM and ~2500 nM
